Published values collected from several papers.
Each numbered part is a random draw from the data of one study; scales do not carry over between parts.

Series 1 — technique: RNA Bind-n-Seq; molecule type: RNA; matrix: in vitro; tested at: 200 nM; notes: whole 134-nt RNA, ends assumed; with: 150 mM LiCl; reference: input library; reading: higher = stronger binding; quantity: log2 enrichment; each molecule: 7-deaza-guanosine replaces G
Target: Fragile X messenger ribonucleoprotein 1, C-terminal low-complexity region (Fmr1, Mus musculus, UniProt P35922)
Shared flanks, not repeated: GGGAGUUCUACAGUCCGACGAUC … UGGAAUUCUCGGGUGUCAAGG
AGUCCUGUGCUACACAUCGUAUGUACCGAAUCGGCCCCCGGGGCCCCCGGGCCCCCGGAAAGUAUUAUGUUACGCCGUUCGGAUCUGCAC: -2.47
UCAAGUCCUGUGCUACACAUCGUAUGUACCGAAUCGGGAAAGGAAAGGAAAGGGGAAAGUAUUAUGUUACGCCGUUCGGAUCUGCACUUC: -1.11
GCAGGAAGUAAAAUCAAAUGGAAAUGCUUCGGAUAGUGGCAGGGGUGGGGGUUGCUAAGGAAAGGGUGGGAUGGGAGUGGGUAAAGAGUU: 1.38
CACAGACAACACGCACCCACACAGACACAGAGGGAAGGGGUUGGGAUGGGGACAGGGUGCACAGCAGGGCGGGGUAGGCCCCCAGCCCCU: 1.06
AGUCCUGUGCUACACAUCGUAUGUACCGAAUCGGGUGGGUUUUUUUGGGAAAAAGGGAAAGUAUUAUGUUACGCCGUUCGGAUCUGCACU: -1.3

Series 2 — technique: protein-binding microarray; molecule type: double-stranded DNA, one strand shown; matrix: in vitro; tested at: 2200 nM top; notes: 60-bp whole probe; with: salmon DNA 0.4 mg/ml; reference: random background probes; reading: higher = stronger binding; quantity: fitted relative affinity; shared flanks, not repeated: GCCTAGCAC … GTCTTGATTCGCTTGACGCTGCTG
Target: Interferon regulatory factor 7, full length, phosphomimetic (IRF7, Homo sapiens, UniProt Q92985, residues 1-503, S471D/S472D/S475D/S476D/S477D/S483D/S484D/S487D)
Construct (chain): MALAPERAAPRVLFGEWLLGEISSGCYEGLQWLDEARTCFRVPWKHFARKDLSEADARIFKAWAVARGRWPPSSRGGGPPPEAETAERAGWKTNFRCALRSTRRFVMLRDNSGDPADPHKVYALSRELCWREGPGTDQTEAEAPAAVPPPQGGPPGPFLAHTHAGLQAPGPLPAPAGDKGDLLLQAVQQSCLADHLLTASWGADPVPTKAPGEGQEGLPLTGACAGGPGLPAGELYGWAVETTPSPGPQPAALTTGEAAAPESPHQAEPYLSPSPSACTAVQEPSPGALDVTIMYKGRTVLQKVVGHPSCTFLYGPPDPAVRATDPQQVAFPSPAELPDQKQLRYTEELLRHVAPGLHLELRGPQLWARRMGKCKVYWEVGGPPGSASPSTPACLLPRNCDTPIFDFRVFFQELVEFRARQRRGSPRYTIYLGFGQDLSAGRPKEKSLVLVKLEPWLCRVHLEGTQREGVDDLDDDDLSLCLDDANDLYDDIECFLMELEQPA
GACGGTTTCAGTTCCGGGACGTGCTAG: 4.15 z-score
GACGGAATCGGGTTTCGGGACGTGCTA: 1.91 z-score
TTAGGTTTCGGTTTCGGCTAGTGCTAG: 14.6 z-score
TTAGGAATCGGGTTTCGGTTAGTGCTA: 3.54 z-score
CTGAGATGCATTCTGGGCCCGTGCTAG: -0.379 z-score

Series 3 — technique: protein-binding microarray; molecule type: double-stranded DNA, one strand shown; matrix: in vitro; tested at: not given; reading: higher = stronger binding; quantity: E-score
Target: Transcription factor Sp1 (SP1, Homo sapiens, UniProt P08047, residues 1-785, full length assumed)
UniProt P08047, sequence (whole entry, looked up): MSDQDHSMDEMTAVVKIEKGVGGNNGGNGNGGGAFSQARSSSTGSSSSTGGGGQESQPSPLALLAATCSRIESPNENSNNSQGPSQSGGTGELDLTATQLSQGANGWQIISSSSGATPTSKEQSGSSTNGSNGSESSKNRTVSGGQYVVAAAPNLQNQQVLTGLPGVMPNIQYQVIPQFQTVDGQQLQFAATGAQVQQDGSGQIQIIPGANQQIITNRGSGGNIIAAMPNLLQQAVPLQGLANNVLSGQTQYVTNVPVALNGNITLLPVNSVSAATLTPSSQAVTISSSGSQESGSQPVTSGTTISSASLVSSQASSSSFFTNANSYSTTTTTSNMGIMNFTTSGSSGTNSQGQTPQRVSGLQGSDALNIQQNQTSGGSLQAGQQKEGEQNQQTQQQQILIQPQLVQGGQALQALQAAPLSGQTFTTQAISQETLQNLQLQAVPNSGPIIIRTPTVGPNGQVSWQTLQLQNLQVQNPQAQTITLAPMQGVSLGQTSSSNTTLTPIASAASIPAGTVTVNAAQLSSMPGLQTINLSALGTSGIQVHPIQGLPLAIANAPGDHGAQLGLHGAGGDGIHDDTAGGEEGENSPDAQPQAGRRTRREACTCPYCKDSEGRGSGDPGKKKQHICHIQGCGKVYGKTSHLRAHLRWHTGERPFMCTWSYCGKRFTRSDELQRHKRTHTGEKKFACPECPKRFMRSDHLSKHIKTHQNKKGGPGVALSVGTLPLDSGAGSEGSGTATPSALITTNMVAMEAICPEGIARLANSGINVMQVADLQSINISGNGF
Notes: k-mer, scored over probes, only values ≥0.25
AACCCCAA: 0.254
ATGGGGCG: 0.434
CCCGCCCA: 0.492
ATGTTACC: 0.254
ACATGTCG: 0.273

Further values, each from its own experiment
PhoQ, residues 284 288 289 292 302 303 AGGCYF — fold induction (PhoP, residues 12 14 15 18 19 FWNTL (Escherichia coli, UniProt P23836); Sort-seq, measured: YFP reporter; E. coli; PhoQ-PhoP variant library, with: 10 µM Mg2+; reference: high Mg2+ state, higher = stronger signaling): 0.703

For quick reference, copied from above (series 1):
AGUCCUGUGCUACACAUCGUAUGUACCGAAUCGGGUGGGUUUUUUUGGGAAAAAGGGAAAGUAUUAUGUUACGCCGUUCGGAUCUGCACU: -1.3
AGUCCUGUGCUACACAUCGUAUGUACCGAAUCGGCCCCCGGGGCCCCCGGGCCCCCGGAAAGUAUUAUGUUACGCCGUUCGGAUCUGCAC: -2.47
UCAAGUCCUGUGCUACACAUCGUAUGUACCGAAUCGGGAAAGGAAAGGAAAGGGGAAAGUAUUAUGUUACGCCGUUCGGAUCUGCACUUC: -1.11
